# Assay results pooled from the literature.
# Lines come from different studies, so protocols differ. ± marks the error that the study gave.
# PKLR: Pyruvate kinase PKLR (PKLR, Homo sapiens, UniProt P30613)
# Chain of UniProt P30613 (whole entry, looked up): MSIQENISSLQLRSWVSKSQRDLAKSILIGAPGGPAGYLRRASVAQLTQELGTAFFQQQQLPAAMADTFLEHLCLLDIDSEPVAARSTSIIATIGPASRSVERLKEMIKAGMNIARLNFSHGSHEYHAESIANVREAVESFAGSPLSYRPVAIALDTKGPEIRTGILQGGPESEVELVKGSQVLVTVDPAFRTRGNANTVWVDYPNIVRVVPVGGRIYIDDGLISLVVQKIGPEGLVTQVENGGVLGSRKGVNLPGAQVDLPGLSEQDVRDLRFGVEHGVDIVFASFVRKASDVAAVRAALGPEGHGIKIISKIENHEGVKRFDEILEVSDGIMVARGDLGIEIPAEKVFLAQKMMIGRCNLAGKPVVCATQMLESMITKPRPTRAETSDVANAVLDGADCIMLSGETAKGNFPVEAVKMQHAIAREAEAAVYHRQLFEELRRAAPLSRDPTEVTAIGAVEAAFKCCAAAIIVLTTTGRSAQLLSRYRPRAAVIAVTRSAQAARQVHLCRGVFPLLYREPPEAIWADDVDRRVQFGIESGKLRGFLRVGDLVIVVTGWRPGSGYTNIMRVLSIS
# Nuclear receptor subfamily 2 group C member 2 ligand-binding domain: Nuclear receptor subfamily 2 group C member 2, ligand-binding domain (Homo sapiens, UniProt P49116)
# Chain of UniProt P49116 (whole entry, looked up): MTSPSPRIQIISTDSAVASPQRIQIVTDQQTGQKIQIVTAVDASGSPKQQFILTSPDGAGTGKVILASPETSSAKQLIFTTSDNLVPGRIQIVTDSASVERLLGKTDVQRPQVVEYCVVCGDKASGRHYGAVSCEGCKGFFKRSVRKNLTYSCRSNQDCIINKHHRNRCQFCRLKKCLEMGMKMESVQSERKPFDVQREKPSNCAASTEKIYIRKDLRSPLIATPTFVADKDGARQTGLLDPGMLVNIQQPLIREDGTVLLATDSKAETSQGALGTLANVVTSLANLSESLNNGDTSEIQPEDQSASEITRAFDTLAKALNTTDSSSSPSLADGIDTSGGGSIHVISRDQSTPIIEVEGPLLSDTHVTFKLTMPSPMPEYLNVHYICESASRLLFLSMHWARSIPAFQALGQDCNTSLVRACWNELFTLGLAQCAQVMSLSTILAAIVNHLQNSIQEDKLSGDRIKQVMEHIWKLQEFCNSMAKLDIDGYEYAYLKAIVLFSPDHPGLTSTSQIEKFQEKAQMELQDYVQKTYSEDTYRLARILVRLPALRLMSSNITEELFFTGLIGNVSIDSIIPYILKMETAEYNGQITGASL
# YWHAG/RELA phospho-Ser45 p65 peptide: YWHAG/RELA, phospho-Ser45 p65 peptide (Homo sapiens, UniProt P61981+Q04206)
# Chain of UniProt P61981 (whole entry, looked up): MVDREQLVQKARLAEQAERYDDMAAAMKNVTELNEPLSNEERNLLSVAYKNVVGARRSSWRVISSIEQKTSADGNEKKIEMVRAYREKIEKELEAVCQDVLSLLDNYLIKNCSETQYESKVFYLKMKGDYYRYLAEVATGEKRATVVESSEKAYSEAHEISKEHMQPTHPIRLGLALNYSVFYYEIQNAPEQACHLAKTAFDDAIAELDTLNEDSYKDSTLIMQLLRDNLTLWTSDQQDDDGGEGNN
# Chain of UniProt Q04206 (whole entry, looked up): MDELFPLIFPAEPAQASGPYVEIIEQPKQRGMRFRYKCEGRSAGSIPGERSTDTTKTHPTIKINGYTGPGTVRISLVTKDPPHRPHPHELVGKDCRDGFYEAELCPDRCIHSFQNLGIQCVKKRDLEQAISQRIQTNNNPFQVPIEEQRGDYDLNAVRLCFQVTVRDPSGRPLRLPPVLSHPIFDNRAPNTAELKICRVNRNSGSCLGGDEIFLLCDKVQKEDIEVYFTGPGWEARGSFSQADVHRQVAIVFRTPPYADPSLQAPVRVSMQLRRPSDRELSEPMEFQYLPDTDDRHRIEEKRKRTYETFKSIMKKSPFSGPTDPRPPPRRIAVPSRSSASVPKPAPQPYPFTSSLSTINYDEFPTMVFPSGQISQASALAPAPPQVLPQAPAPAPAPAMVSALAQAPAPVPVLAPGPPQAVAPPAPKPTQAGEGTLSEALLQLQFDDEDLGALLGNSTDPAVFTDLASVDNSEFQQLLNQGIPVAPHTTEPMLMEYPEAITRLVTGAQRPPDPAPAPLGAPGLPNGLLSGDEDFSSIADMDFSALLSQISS
# PPARA: Peroxisome proliferator-activated receptor alpha (PPARA, Homo sapiens, UniProt Q07869)
# Chain of UniProt Q07869 (whole entry, looked up): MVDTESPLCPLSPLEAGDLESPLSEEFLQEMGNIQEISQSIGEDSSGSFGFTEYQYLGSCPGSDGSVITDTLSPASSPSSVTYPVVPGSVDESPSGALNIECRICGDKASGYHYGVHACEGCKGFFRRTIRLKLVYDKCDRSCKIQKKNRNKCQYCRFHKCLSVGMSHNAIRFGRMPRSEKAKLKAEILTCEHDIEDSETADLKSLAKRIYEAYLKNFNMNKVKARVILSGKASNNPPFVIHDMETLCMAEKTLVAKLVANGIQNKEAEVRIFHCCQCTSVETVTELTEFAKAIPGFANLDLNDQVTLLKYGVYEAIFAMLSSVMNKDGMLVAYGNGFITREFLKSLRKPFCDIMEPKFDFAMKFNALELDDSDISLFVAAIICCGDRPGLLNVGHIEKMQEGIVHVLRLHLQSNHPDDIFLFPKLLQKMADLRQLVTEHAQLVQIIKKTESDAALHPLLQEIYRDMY
# Chain of UniProt P30988 (whole entry, looked up): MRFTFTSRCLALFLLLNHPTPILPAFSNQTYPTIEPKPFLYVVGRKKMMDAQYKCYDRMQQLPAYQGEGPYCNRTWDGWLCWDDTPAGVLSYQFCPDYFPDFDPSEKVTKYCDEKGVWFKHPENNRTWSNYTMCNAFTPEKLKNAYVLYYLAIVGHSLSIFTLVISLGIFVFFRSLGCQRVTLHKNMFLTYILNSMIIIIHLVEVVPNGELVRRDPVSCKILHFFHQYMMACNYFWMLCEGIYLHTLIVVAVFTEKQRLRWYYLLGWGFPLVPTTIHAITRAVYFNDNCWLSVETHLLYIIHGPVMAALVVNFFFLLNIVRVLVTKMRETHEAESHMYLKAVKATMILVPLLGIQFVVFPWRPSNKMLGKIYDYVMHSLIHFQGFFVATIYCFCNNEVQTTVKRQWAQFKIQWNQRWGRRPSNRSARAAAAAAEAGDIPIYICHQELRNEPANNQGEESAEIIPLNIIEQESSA
# Chain of UniProt P10145 (whole entry, looked up): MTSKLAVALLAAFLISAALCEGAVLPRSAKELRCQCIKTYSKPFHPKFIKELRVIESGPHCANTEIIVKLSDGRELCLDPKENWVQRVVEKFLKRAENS
# Chain of UniProt P55085 (whole entry, looked up): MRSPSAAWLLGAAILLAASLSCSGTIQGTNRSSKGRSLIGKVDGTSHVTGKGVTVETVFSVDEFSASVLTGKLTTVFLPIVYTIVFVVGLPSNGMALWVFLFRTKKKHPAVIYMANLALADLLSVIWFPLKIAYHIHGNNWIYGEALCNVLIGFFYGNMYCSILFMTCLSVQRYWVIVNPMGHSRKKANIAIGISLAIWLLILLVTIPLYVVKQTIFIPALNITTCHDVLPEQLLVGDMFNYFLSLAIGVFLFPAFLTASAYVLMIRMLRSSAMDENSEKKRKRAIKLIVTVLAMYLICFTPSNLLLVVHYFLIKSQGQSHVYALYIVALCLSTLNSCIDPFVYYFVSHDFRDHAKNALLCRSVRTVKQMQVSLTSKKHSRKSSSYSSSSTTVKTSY
# Chain of UniProt Q8TDU6 (whole entry, looked up): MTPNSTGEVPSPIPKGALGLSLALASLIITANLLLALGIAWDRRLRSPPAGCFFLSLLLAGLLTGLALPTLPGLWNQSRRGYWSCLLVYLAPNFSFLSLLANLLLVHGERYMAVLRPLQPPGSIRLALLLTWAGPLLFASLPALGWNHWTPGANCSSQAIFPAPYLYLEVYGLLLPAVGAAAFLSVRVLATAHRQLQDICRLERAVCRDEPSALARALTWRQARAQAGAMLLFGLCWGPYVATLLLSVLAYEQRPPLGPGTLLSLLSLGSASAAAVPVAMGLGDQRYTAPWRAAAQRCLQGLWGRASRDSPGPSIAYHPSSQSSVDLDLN
# Chain of UniProt Q704Y3 (whole entry, unmodified, looked up): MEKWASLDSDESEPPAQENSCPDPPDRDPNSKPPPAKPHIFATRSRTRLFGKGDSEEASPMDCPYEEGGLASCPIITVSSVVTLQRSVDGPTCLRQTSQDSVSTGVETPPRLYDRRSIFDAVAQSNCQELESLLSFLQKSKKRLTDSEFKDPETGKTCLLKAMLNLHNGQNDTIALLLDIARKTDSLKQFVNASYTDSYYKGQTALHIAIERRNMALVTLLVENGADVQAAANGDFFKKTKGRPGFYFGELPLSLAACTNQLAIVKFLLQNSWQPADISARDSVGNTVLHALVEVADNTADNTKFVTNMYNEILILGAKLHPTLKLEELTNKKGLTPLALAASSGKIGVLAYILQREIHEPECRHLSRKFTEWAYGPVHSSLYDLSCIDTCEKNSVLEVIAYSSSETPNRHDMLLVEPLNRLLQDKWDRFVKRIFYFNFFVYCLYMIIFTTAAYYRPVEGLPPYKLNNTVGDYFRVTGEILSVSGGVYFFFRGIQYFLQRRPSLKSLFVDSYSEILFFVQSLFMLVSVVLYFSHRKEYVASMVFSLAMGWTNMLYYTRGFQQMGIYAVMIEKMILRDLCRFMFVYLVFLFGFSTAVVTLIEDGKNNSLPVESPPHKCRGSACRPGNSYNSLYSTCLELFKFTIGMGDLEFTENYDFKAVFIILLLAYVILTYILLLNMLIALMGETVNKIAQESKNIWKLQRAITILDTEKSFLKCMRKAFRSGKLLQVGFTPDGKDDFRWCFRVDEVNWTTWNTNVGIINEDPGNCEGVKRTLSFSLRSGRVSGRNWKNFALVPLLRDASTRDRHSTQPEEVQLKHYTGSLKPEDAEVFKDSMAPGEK
SMILES,target,assay,test system,setting,quantity,result
CC[C@H](C)[C@H](NC(=O)[C@H](CC(C)C)NC(=O)[C@@H](N)CO)C(=O)NCC(=O)N[C@@H](CCCNC(=N)N)C(=O)N[C@@H](CC(C)C)C(N)=O,"F2RL1 (Homo sapiens, UniProt P55085)","agonist, cell-based",,,EC50,0.668 µM
COC(=O)c1ccccc1OC1=NS(=O)(=O)c2ccccc21,PKLR,"enzyme activity, activator",,"30 min, 24 °C, together with: 0.125 mM PEP and 0.1 mM ADP",EC50,0.77 µM
CO[C@H]1O[C@H](COS(=O)(=O)O)[C@@H](O[C@@H]2O[C@@H](C(=O)O)[C@@H](O[C@H]3O[C@H](COS(=O)(=O)O)[C@@H](O[C@@H]4O[C@H](C(=O)O)[C@@H](O[C@H]5O[C@H](COS(=O)(=O)O)[C@@H](O)[C@H](O)[C@H]5NS(=O)(=O)O)[C@H](O)[C@H]4O)[C@H](OS(=O)(=O)O)[C@H]3NS(=O)(=O)O)[C@H](O)[C@H]2OS(=O)(=O)O)[C@H](O)[C@H]1NS(=O)(=O)O,"Interleukin-8 (CXCL8, Homo sapiens, UniProt P10145)","probe displacement, FP competition",,"protein 800 nM, together with: TAMRA-labelled sHA tetramer probe",EC50,90.4 ± 12.4 µM
C[C@H](CCC(=O)O)[C@H]1CC[C@H]2[C@@H]3[C@H](O)C[C@@H]4C[C@H](O)CC[C@]4(C)[C@H]3CC[C@]12C,Nuclear receptor subfamily 2 group C member 2 ligand-binding domain,SPR imaging,,,Kd,0.0181 nM
CN1CC2c3ccccc3Oc3ccc(Cl)cc3C2C1 (stereo not shown),"5-hydroxytryptamine receptor 1A, with Goα P315D (HTR1A, Homo sapiens, UniProt P08908)",,,,EC50,0.0197 µM
O=Cc1ccc([N+](=O)[O-])c(N2CCc3ccccc3C2)c1,YWHAG/RELA phospho-Ser45 p65 peptide,"ternary complex formation, stabilizer, fluorescence anisotropy",,,EC50,> 1000 µM
C[C@H](CCC(=O)NCC(=O)O)[C@H]1CC[C@H]2[C@@H]3[C@@H](O)C[C@@H]4C[C@H](O)CC[C@]4(C)[C@H]3CC[C@]12C,"GPBAR1 (Homo sapiens, UniProt Q8TDU6)",agonist,,,EC50,34.6 ± 9.6 µM
CC(C)CN1CCN(c2cc(C=O)ccc2[N+](=O)[O-])CC1,YWHAG/RELA phospho-Ser45 p65 peptide,"ternary complex formation, stabilizer, fluorescence anisotropy",,,EC50,> 1000 µM
CCO[C@H](COc1ccc(C(F)(F)F)cc1)CSc1ccc(OCC(=O)O)c(C)c1,PPARA,"receptor activation, agonist, cell-based",,,EC50,3 µM
CN1CCN(S(=O)(=O)c2ccc(C=O)cc2)CC1,YWHAG/RELA phospho-Ser45 p65 peptide,"ternary complex formation, stabilizer, fluorescence anisotropy",,,EC50,> 1000 µM
CCO[C@@H](Cc1ccc(OCCn2c(C)ccc2-c2ccc(SC)cc2)cc1)C(=O)O,PPARA,"receptor activation, agonist, cell-based",,,EC50,0.3 µM
CC[C@H](C)[C@H](NC(=O)[C@@H]1CCCN1C(=O)CNC(=O)[C@H](Cc1ccccc1)NC(=O)[C@H](CC(N)=O)NC(=O)[C@H](CC(N)=O)NC(=O)[C@H](CO)NC(=O)[C@H](CO)NC(=O)[C@H](Cc1c[nH]cn1)NC(=O)[C@H](CCCNC(=N)N)NC(=O)[C@H](CC(C)C)NC(=O)[C@H](Cc1ccccc1)NC(=O)[C@H](CCC(=O)O)NC(=O)[C@H](C)NC(=O)[C@H](CC(C)C)NC(=O)[C@H](CCCNC(=N)N)NC(=O)[C@H](CCC(N)=O)NC(=O)[C@@H](NC(=O)[C@H](C)NC(=O)[C@@H]1CSSC[C@H](NC(=O)[C@H](CCCCN)NC(=O)CC[C@H](NC(=O)CCCCCCCCCCCCCCCCCCC(=O)O)C(=O)O)C(=O)N[C@@H](CC(N)=O)C(=O)N[C@@H]([C@@H](C)O)C(=O)N[C@@H](C)C(=O)N[C@@H]([C@@H](C)O)C(=O)N1)[C@@H](C)O)C(=O)N[C@@H](CC(C)C)C(=O)N1CCC[C@H]1C(=O)N1CCC[C@H]1C(=O)N[C@H](C(=O)N[C@@H](CC(N)=O)C(=O)N[C@H](C(=O)NCC(=O)N[C@@H](CO)C(=O)N[C@@H](CC(N)=O)C(=O)N[C@H](C(=O)N1CCC[C@H]1C(N)=O)[C@@H](C)O)C(C)C)[C@@H](C)O,"Calcitonin receptor, isoform a (CALCR, Homo sapiens, UniProt P30988)","reporter gene, agonist, CRE-luciferase",BHK expressing CTR,3 h,EC50,2.19e-06 µM
COCCN1CCN(c2cc(C=O)ccc2[N+](=O)[O-])CC1,YWHAG/RELA phospho-Ser45 p65 peptide,"ternary complex formation, stabilizer, fluorescence anisotropy",,,EC50,> 1000 µM
CCCCCCCC/C=C\CCCCCCCC(=O)NCCc1ccc(O)c(O)c1,"Trpv1 (Mus musculus, UniProt Q704Y3, D510E)","ion current, agonist, whole-cell patch clamp",,"24 °C, D510E, +80 mV",EC50,0.33 ± 0.05 µM
CC[C@@H]1[C@H](F)C(=O)N[C@@H]1COc1nccc2cc(C(N)=O)c(OC)cc12,"RPS6KC1 (Homo sapiens, UniProt Q96S38)","ATP-site binding, ActivX kinase profiling",THP-1 cell lysate,RSKL1 domain 1 ATP-site probe peptide,IC50,> 5 µM
CNC(=O)c1ccccc1SC1=NS(=O)(=O)c2ccccc21,PKLR,"enzyme activity, activator",,"30 min, 24 °C, together with: 0.125 mM PEP and 0.1 mM ADP",EC50,0.84 µM
CN(c1cc(C=O)ccc1[N+](=O)[O-])C1CCOCC1,YWHAG/RELA phospho-Ser45 p65 peptide,"ternary complex formation, stabilizer, fluorescence anisotropy",,,EC50,> 1000 µM
Cc1cccc(C)c1OCC(C)N (stereo not shown),Nuclear receptor subfamily 2 group C member 2 ligand-binding domain,binding,,,Kd,15.1 nM
Cc1nn(-c2nc3c(F)cc(F)cc3s2)c(O)c1C(c1ccc(C(F)(F)F)cc1)c1c(C)nn(-c2nc3c(F)cc(F)cc3s2)c1O,"Cyclic GMP-AMP synthase, catalytic domain; with DNA (CGAS, Homo sapiens, UniProt Q8N884)","cGAS phase separation, inhibitor",,,EC50,4.25 µM
CC1(C)Cc2c(sc(NC(=O)c3ccn[nH]3)c2C(N)=O)C(C)(C)O1,"cftr (Danio rerio, UniProt Q1LX78, L1146N)","chloride current, activator, inside-out patch clamp",CHO cells transfected,,EC50,3.6 ± 1.92 µM
CCCCC[C@H](O)/C=C/[C@H]1[C@H](O)CC(=O)[C@@H]1C/C=C\CCCC(=O)O,"PTGER1 (Homo sapiens, UniProt P34995, T186A)","IP1 accumulation, agonist",AD293,EP1 T186A mutant,EC50,0.0442 µM
COC1CCN(c2cc(C=O)ccc2[N+](=O)[O-])CC1,YWHAG/RELA phospho-Ser45 p65 peptide,"ternary complex formation, stabilizer, fluorescence anisotropy",,,EC50,> 1000 µM
CCOc1ccc(NC(=O)O[C@@H](Cn2nc(C(C)C)cc2C(C)C)C(C)C)cc1,"Neuronal acetylcholine receptor; alpha4/beta2 (Homo sapiens, UniProt P17787+P43681)","potentiation of ion current, potentiator, TEVC",,"low-sensitivity (α4)3(β2)2, together with: ACh 10 µM",EC50,1.3 ± 0.3 µM
O=S1(=O)N=C(Sc2ccccc2)c2ccccc21,PKLR,"enzyme activity, activator",,"30 min, 24 °C, together with: 0.125 mM PEP and 0.1 mM ADP",EC50,6 µM
CS(=O)(=O)c1ccccc1C=O,YWHAG/RELA phospho-Ser45 p65 peptide,"ternary complex formation, stabilizer, fluorescence anisotropy",,,EC50,> 1000 µM
